Assay results collected from several papers.
Compare with care: the assays were run in different laboratories. Numbers after ± are the reported error.
GBA2: Beta-glucosidase (GBA2, Homo sapiens, UniProt Q9HCG7)
Chain of UniProt Q9HCG7 (whole entry, looked up): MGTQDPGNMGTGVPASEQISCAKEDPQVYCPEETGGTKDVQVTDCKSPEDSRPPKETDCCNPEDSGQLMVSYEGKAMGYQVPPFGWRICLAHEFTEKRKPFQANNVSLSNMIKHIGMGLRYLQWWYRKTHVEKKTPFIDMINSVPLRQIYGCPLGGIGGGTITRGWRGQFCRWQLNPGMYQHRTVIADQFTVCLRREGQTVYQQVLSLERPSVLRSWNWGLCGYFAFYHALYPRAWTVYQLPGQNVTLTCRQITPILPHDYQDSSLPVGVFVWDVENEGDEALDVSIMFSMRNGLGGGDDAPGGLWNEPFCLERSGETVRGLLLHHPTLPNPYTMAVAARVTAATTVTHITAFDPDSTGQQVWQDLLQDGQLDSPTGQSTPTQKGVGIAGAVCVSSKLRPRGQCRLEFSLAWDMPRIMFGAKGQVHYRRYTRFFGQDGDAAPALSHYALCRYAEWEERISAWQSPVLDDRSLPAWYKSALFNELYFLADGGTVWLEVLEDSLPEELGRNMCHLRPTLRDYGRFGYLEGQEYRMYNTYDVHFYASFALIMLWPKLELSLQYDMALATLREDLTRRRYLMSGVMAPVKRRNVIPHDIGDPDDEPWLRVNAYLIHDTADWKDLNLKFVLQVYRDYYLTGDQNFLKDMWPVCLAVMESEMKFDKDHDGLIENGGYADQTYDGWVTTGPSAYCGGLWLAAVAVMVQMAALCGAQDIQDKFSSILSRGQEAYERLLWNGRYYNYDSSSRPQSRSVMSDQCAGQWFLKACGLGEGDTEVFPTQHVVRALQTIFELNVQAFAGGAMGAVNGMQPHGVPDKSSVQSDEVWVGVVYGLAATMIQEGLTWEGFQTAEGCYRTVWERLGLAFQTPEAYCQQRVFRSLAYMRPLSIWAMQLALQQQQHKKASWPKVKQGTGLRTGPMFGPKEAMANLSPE
PTH1R: Parathyroid hormone/parathyroid hormone-related peptide receptor (PTH1R, Homo sapiens, UniProt Q03431)
Chain of UniProt Q03431 (whole entry, looked up): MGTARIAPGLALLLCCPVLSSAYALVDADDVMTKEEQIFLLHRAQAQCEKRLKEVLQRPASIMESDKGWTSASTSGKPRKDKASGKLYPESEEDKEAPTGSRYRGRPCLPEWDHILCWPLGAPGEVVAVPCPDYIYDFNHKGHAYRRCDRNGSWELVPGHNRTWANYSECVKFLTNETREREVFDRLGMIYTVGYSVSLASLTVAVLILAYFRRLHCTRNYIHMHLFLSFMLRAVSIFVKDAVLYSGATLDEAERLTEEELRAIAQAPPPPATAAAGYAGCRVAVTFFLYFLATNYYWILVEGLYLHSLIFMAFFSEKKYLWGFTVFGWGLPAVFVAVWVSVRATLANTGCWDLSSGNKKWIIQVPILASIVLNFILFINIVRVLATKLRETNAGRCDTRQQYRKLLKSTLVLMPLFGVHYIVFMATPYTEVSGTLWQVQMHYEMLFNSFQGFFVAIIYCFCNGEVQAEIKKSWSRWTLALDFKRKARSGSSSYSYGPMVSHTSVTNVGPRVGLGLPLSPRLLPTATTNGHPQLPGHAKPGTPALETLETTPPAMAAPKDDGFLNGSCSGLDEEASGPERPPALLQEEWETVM
MTNR1A: Melatonin receptor type 1A (MTNR1A, Homo sapiens, UniProt P48039)
Chain of UniProt P48039 (whole entry, looked up): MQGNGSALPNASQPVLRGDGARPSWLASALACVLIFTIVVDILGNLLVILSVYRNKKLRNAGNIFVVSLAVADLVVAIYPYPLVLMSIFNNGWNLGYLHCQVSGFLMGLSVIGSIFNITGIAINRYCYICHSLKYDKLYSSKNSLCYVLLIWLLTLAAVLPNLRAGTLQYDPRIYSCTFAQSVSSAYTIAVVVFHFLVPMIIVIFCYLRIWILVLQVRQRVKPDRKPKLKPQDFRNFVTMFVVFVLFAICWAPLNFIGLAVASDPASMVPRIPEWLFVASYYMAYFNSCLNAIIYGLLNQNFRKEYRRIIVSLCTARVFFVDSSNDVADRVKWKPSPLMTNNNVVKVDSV
Chain of UniProt Q9NSD7 (whole entry, unmodified, looked up): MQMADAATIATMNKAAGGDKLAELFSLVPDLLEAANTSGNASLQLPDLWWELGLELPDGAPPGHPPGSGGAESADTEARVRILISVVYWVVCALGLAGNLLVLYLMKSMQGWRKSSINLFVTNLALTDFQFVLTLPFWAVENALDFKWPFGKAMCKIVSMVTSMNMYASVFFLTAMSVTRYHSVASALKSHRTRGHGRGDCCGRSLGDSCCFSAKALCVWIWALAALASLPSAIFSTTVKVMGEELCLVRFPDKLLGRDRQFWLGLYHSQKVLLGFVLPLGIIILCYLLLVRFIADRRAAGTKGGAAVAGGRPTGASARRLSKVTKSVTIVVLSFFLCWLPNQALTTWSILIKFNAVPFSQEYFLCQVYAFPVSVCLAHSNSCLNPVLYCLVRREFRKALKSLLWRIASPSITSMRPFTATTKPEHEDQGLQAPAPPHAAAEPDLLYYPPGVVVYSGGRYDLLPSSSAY
Chain of UniProt Q969F8 (whole entry, unmodified, looked up): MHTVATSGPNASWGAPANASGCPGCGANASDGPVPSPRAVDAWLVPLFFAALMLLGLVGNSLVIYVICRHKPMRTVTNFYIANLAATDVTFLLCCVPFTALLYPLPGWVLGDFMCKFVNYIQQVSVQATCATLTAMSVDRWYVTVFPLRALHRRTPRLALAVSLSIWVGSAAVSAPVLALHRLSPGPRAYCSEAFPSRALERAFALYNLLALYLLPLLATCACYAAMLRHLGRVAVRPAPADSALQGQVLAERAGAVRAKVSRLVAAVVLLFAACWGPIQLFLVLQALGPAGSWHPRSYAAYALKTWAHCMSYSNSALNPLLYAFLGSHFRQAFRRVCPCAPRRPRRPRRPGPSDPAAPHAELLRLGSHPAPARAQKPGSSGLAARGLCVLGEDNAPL

SMILES | target | assay | system | conditions | how to read | endpoint | result
COc1cc(C2C(NC(=O)c3ccc(NC(=O)OC(C)(C)C)cc3)(C(=O)O)C(c3ccc(OC(=O)c4cccs4)c(OC)c3)C2(NC(=O)c2ccc(NC(=O)OC(C)(C)C)cc2)C(=O)O)ccc1OC(=O)c1cccs1 (stereo not drawn) | GLP1R (Homo sapiens, UniProt P43220, E34A) | cAMP accumulation, agonist | – | receptor mutant | relative to: wild type | Emax | 104 ± 3.78%
CC(C)=CCOCCCCCN1C[C@H](O)[C@@H](O)[C@H](O)[C@@H]1CO | GBA2 | inhibitor, 4MU-β-D-glucopyranoside | HEK293T homogenates overexpressing GBA2 | – | relative to: GCS IC50 over GBA2 IC50 | selectivity ratio | 328
CCCCCCCCCCCCCCCC(=O)N[C@H](CCCNC(=N)N)C(=O)NCCCC[C@H](NC(=O)[C@H](C)NC(=O)[C@H](CCCCNC(=N)N)NC(=O)[C@H](CCC(N)=O)NC(=O)[C@H](Cc1c[nH]cn1)NC(=O)[C@H](CCCC)NC(=O)[C@H](CC(C)C)NC(=O)[C@H](CCC(N)=O)NC(=O)[C@@H](NC(=O)[C@H](CCC(=O)O)NC(=O)C(C)(C)NC(=O)[C@@H](NC(=O)C1(N)CCCC1)C(C)C)[C@@H](C)CC)C(N)=O | PTH1R | cAMP response, agonist, GloSensor cAMP | GP-2.3 | ligand-on phase | – | Emax | 98.2 ± 6%
COc1cc(I)c(Cc2cc(OC)c(OC)cc2CC(=O)OC(C)(C)C)cc1OC | MTNR1A | GTPγS binding, agonist, radiometric | – | cell membranes | – | Emax | 8%
CC[C@H](C)[C@@H]1NC(=O)[C@H](Cc2ccccc2)NC(=O)[C@H](CCC(=O)O)NC(=O)[C@H](CCCNC(=N)N)NC(=O)CNC(=O)[C@@H](NC(=O)[C@H](CC(C)C)NC(=O)[C@H](CCCNC(=N)N)NC(=O)[C@@H](NC(=O)CNC(=O)[C@H](Cc2ccc(O)cc2)NC(=O)[C@@H]2CCCN2C(=O)[C@H](C)NC(=O)[C@H](C)NC(=O)[C@@H](N)CCCNC(=N)N)C(C)C)CSSC[C@@H]2NC(=O)[C@@H](NC(=O)[C@H](CO)NC(=O)[C@H](CO)NC(=O)[C@H](CO)NC(=O)[C@H](CC(C)C)NC(=O)CNC(=O)[C@H](C)NC(=O)[C@H](CC(C)C)NC(=O)[C@@H](NC(=O)[C@@H](N)CC(=O)O)C(C)C)CSSC[C@H](NC(=O)CNC(=O)[C@H](Cc3c[nH]c4ccccc34)NC(=O)[C@H](CCCCN)NC2=O)C(=O)N[C@@H](CO)C(=O)N[C@@H](CCCCN)C(=O)N[C@@H](CO)C(=O)N[C@@H](CCC(=O)O)C(=O)N[C@@H]([C@@H](C)CC)C(=O)N[C@@H](CO)C(=O)N[C@@H](CO)C(=O)N[C@@H](CC(C)C)C(=O)N[C@H](C(=O)O)CSSC[C@@H](C(=O)NCC(=O)NCC(=O)N[C@@H](CO)C(=O)N[C@@H](CCCNC(=N)N)C(=O)N[C@@H](Cc2c[nH]c3ccccc23)C(=O)O)NC(=O)[C@H]([C@@H](C)O)NC(=O)[C@H](Cc2ccccc2)NC(=O)[C@H]([C@@H](C)CC)NC(=O)[C@H](C(C)C)NC(=O)[C@H](C)NC(=O)[C@H](CCCNC(=N)N)NC1=O | RXFP3 (Homo sapiens, UniProt Q9NSD7, K271A) | – | HEK-293T | – | relative to: wild type | Emax | 77.8 ± 17.7%
CNC(=N)NCCC[C@H](NC(=O)[C@H](CC(C)C)NC(=O)NNC(=O)[C@H](Cc1ccccc1)NC(=O)[C@@H](NC(=O)[C@H](CC(N)=O)NC(=O)[C@@H]1C[C@@H](O)CN1C(=O)[C@@H](Cc1ccc(O)cc1)NC(C)=O)[C@@H](C)O)C(=O)N[C@@H](Cc1c[nH]c2ccccc12)C(N)=O | KiSS-1 receptor (KISS1R, Homo sapiens, UniProt Q969F8, R154A) | IP1 accumulation, agonist, HTRF | HEK293 cells | 1 h, 37 °C, R154A mutant | – | Emax | 0.24%
CC[C@H](C)[C@H](NC(=O)[C@H](CCC(=O)O)NC(=O)[C@H](C)NC(=O)[C@@H](NC(=O)[C@H](Cc1c[nH]cn1)NC(=O)[C@H]1CCC[C@@H]1NC(=O)[C@H](CCC(=O)O)NC(=O)[C@H](C)NC(=O)[C@@H](NC(=O)[C@H]1CCC[C@@H]1NC(=O)[C@H](Cc1c[nH]cn1)NC(=O)[C@H](Cc1c[nH]cn1)NC(=O)[C@H](CC(C)C)NC(=O)[C@H]1CCC[C@@H]1NC(=O)[C@H](Cc1ccccc1)NC(=O)[C@H](CCCNC(=N)N)NC(=O)[C@H](CCCNC(=N)N)NC(=O)[C@H](CCCNC(=N)N)NC(=O)[C@H](CC(C)C)NC(=O)[C@H](CC(=O)O)NC(=O)[C@H](CCC(N)=O)NC(=O)[C@@H](NC(=O)[C@H](CO)NC(=O)[C@H](CCCCN)NC(=O)CNC(=O)[C@H](CCCCN)NC(=O)[C@H](CC(=O)O)NC(=O)[C@H](Cc1c[nH]cn1)NC(=O)[C@H](CC(C)C)NC(=O)[C@H](CC(C)C)NC(=O)[C@H](CCC(N)=O)NC(=O)[C@H](Cc1c[nH]cn1)NC(=O)[C@H](CCC(=O)O)NC(=O)[C@H](CO)NC(=O)[C@@H](NC(=O)[C@H](C)N)C(C)C)[C@@H](C)CC)[C@@H](C)CC)[C@@H](C)O)C(N)=O | Parathyroid hormone/parathyroid hormone-related peptide receptor, with β-arrestin-2 (PTH1R, Homo sapiens, UniProt Q03431) | β-arrestin-2 recruitment, agonist, BRET | CHO-FlpIn cells | – | – | Emax | 30 to 40%
COc1ccc2[nH]c(I)c(CCNC(C)=O)c2c1 | MTNR1A | β-arrestin recruitment, agonist | CHO-K1 | 90 min | – | Emax | 98%
CCc1cc(O)cc2c(/C=N/NC(=N)NCCc3ccc(Cl)cc3)c[nH]c12 | RXFP3 (Homo sapiens, UniProt Q9NSD7, F146A) | – | HEK-293T | – | relative to: wild type | Emax | 53.8 ± 3.73%
CCCCCCCCCCCCCCCC(=O)N[C@H](CCC(=O)O)C(=O)NCCCC[C@H](NC(=O)[C@H](CCCCNC(=N)N)NC(=O)[C@H](CCC(N)=O)NC(=O)[C@H](Cc1c[nH]cn1)NC(=O)[C@H](CCCC)NC(=O)[C@H](CC(C)C)NC(=O)[C@H](CCC(N)=O)NC(=O)[C@@H](NC(=O)[C@H](CCC(=O)O)NC(=O)C(C)(C)NC(=O)[C@@H](NC(=O)C1(N)CCCC1)C(C)C)[C@@H](C)CC)C(N)=O | PTH1R | cAMP response, agonist, GloSensor cAMP | GP-2.3 | washout phase | – | Emax | 92 ± 7%
COc1cc2c(CCNC(C)=O)c[nH]c2cc1Cl | MTNR1A | GTPγS binding, agonist, radiometric | – | cell membranes | – | Emax | 74%
CCCCCOCCCCCN1C[C@H](O)[C@@H](O)[C@H](O)[C@H]1CO | GBA2 | inhibitor, 4MU-β-D-glucopyranoside | HEK293T homogenates overexpressing GBA2 | – | relative to: GCS IC50 over GBA2 IC50 | selectivity ratio | 50

Excerpt of the above:
SMILES | target | assay | system | conditions | how to read | endpoint | result
COc1ccc2[nH]c(I)c(CCNC(C)=O)c2c1 | MTNR1A | β-arrestin recruitment, agonist | CHO-K1 | 90 min | – | Emax | 98%
